# Literature values as cited in several papers.
# Protocols differ between the studies behind these lines.
# CYP3A4: Cytochrome P450 3A4 (CYP3A4, Homo sapiens, UniProt P08684)
# Chain of UniProt P08684 (whole entry, looked up): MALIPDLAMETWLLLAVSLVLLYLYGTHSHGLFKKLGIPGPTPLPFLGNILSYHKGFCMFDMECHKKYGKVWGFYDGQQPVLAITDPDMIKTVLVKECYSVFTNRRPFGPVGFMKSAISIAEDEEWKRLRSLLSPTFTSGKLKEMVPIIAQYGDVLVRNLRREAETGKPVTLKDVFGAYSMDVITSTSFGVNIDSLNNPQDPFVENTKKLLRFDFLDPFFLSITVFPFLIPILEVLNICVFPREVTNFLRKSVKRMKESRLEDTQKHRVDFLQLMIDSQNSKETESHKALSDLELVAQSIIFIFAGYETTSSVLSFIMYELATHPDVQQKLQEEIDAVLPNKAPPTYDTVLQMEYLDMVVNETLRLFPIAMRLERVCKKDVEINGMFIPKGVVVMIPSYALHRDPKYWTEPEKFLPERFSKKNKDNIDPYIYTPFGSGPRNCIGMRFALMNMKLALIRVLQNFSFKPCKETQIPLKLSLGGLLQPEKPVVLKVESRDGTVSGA
# Chain of UniProt P10632 (whole entry, looked up): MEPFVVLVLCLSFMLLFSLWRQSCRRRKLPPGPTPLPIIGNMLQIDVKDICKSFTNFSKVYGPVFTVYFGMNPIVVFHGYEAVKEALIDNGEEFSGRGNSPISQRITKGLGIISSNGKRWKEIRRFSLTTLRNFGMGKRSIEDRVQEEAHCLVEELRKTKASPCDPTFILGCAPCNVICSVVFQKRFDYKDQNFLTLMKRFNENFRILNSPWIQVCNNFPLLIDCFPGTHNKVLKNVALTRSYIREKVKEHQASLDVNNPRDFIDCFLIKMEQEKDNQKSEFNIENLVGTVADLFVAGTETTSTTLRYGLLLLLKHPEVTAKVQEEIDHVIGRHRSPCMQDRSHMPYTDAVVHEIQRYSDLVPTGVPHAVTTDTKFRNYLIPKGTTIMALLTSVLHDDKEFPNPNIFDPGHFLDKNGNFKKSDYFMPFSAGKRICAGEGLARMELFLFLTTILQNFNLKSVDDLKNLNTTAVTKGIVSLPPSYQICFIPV
# Chain of UniProt P11712 (whole entry, looked up): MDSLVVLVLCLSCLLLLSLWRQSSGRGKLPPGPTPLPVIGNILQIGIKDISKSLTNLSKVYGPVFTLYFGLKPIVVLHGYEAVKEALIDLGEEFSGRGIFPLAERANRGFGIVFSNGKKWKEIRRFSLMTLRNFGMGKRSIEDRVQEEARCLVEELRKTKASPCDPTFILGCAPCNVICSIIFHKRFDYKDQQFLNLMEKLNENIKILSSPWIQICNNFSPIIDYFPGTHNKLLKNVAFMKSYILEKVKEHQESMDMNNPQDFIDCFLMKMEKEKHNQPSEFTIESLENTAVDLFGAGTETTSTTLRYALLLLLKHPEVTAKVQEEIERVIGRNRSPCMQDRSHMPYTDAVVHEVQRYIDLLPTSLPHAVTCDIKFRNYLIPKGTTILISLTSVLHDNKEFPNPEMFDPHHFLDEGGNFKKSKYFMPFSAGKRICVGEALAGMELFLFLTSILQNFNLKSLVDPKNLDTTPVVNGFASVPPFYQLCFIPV
# Chain of UniProt Q9UNQ0 (whole entry, looked up): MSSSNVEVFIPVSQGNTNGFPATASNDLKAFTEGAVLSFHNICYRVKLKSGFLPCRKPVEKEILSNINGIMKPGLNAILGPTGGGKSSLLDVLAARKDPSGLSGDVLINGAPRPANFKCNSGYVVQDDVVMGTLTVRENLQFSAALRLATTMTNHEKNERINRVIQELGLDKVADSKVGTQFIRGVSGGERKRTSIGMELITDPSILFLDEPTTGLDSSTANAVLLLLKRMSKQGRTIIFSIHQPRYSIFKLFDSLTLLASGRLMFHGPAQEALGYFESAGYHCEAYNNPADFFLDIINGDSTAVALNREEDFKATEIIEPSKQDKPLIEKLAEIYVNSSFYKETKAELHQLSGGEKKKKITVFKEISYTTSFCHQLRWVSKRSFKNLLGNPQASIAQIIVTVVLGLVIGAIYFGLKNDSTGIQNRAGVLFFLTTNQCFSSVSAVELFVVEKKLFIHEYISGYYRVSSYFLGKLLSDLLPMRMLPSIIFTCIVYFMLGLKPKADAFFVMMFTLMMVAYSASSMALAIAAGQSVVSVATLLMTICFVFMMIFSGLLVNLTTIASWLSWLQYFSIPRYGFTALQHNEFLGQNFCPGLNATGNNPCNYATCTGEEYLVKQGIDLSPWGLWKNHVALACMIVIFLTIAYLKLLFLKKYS
# Chain of UniProt Q06278 (whole entry, looked up): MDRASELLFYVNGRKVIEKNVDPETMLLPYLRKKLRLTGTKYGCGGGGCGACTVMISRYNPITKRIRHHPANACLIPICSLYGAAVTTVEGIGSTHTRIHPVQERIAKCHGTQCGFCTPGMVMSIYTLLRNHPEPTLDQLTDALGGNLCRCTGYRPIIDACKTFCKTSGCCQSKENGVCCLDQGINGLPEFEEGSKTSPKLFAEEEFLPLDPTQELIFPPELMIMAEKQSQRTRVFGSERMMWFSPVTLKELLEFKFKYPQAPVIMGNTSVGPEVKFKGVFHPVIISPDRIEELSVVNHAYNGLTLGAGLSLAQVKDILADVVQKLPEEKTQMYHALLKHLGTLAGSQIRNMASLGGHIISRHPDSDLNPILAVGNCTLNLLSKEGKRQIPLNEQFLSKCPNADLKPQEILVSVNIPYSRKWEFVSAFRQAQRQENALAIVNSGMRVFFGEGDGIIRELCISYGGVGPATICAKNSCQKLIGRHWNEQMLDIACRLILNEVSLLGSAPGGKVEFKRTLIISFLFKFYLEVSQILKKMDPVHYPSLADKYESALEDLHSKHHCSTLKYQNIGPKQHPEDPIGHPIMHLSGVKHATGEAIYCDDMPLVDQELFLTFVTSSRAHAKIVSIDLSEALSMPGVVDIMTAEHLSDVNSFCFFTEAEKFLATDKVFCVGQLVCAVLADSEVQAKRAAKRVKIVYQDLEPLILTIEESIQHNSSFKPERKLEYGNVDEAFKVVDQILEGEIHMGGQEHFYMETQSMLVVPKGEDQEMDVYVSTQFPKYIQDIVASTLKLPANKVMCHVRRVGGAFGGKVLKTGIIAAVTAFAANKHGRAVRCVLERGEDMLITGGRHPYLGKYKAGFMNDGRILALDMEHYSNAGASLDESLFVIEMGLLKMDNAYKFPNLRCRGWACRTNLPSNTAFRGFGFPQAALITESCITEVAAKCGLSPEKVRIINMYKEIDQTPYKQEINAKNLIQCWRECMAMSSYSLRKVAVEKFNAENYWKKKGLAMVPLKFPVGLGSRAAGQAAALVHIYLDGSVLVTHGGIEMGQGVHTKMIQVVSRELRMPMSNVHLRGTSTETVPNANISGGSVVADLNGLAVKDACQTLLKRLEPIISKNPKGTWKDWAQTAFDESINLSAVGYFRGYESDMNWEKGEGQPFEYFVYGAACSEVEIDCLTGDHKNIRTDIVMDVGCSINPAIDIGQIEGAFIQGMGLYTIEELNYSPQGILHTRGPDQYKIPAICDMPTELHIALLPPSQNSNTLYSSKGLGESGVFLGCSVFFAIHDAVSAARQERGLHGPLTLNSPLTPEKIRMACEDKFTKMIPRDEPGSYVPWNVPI
SMILES,tested on,test,system,conditions,scale,measurement,value
CC(O)c1cc(C(=O)N[C@@H](C)Cn2ccc(-c3ccc(C#N)c(Cl)c3)n2)[nH]n1 (stereo partly drawn),OATP1B1,,,,literature maximum,IC50,16800 nM
CC(=O)C(C)n1ncn(-c2ccc(N3CCN(c4ccc(OC[C@H]5CO[C@](Cn6cncn6)(c6ccc(Cl)cc6Cl)O5)cc4)CC3)cc2)c1=O (stereo partly drawn),CYP3A4,"enzyme activity, competitive inhibitor",,,,Ki,5.12 nM
O=C1CC[C@H](N2Cc3cc(N4CCN(CC5CCN(c6ccc([C@@H]7c8ccc(O)cc8CC[C@@H]7c7ccccc7)cc6)CC5)CC4)ccc3C2=O)C(=O)N1,"Broad substrate specificity ATP-binding cassette transporter ABCG2 (ABCG2, Homo sapiens, UniProt Q9UNQ0)",clinical DDI,,"concentration not given, added: rosuvastatin (victim)",,Cmax increase,11%
C=C[C@@H]1C[C@]1(NC(=O)[C@@H]1C[C@@H]2CN1C(=O)[C@H](C(C)(C)C)NC(=O)O[C@@H]1C[C@H]1CCCCCc1nc3ccc(OC)cc3nc1O2)C(=O)NS(=O)(=O)C1CC1,OATP1B3 (SLCO1B3) OATP1B3,,,literature geometric mean,,IC50,1220 nM
CN(C)C(=N)N=C(N)N,OCT2,,healthy human,,,CLint,256 mL/min
COc1ccc2[nH]c([S@@+]([O-])Cc3ncc(C)c(OC)c3C)nc2c1,CYP3A,sulfone formation,,in vitro,,fraction of intrinsic clearance,27%
O=C(O)C[C@H](O)C[C@H](O)/C=C/c1c(C2CC2)nc2ccccc2c1-c1ccc(F)cc1,OATP1B1,,,,,share of hepatic uptake clearance,92%
COC(=O)N[C@H](C(=O)N1CCC[C@H]1c1nc(-c2ccc3c(c2)O[C@@H](c2ccccc2)n2c-3cc3cc(-c4c[nH]c([C@@H]5CCCN5C(=O)[C@@H](NC(=O)OC)C(C)C)n4)ccc32)c[nH]1)C(C)C,OATP1B3 (SLCO1B3) OATP1B1,,,literature geometric mean,,IC50,100 nM
CNCc1cn(S(=O)(=O)c2cccc(F)c2)c(-c2ccc(F)cc2F)c1OC,OATP1B1,"transporter uptake, inhibitor",,,,IC50,> 100000 nM
C=CC(=O)Nc1cc(Nc2nccc(-c3cn(C)c4ccccc34)n2)c(OCC(F)(F)F)nc1N(C)CCNC,CYP3A4,"enzyme induction, inducer",in vitro,,,EC50,330 nM
Cc1nccn1CC1CCc2c(c3ccccc3n2C)C1=O (stereo not drawn),P-gp,,P-gp deficient mice,,reference: wild type,brain distribution increase,4 fold
CC(C)[C@@H](CC[C@@H](C)[C@H]1CC[C@H]2[C@@H]3[C@H](O)C[C@H]4C[C@@H](NCCCNCCCCN)CC[C@]4(C)[C@H]3CC[C@]12C)OS(=O)(=O)O,α-synuclein,amyloid toxicity,,concentration not given,,cytotoxicity reduction,79%
COC[C@H]1C[C@@H](c2ncc(-c3ccc4c(c3)COc3cc5c(ccc6nc([C@@H]7CC[C@H](C)N7C(=O)[C@@H](NC(=O)OC)C(C)C)[nH]c65)cc3-4)[nH]2)N(C(=O)[C@H](NC(=O)OC)c2ccccc2)C1,OATP1B3,,,,literature minimum,IC50,127 nM
CCc1cc(/C(C)=N/OCc2ccc(C3CCCCC3)c(C(F)(F)F)c2)ccc1CN1CC(C(=O)O)C1,"Cytochrome P450 2C9 (CYP2C9, Homo sapiens, UniProt P11712)",in vitro reaction phenotyping,,,,fraction metabolized,0.793
CC(=O)Nc1ccc(O)cc1,UGT1A1,,,,,Vmax,6530 pmol/min/mg protein
CO[C@H]1/C=C/O[C@@]2(C)Oc3c(C)c(O)c4c(O)c(c(/C=N/N5CCN(C)CC5)c(O)c4c3C2=O)NC(=O)/C(C)=C\C=C\[C@H](C)[C@H](O)[C@@H](C)[C@@H](O)[C@@H](C)[C@H](OC(C)=O)[C@@H]1C,CYP2B6,inducer,,,,EC50,70 nM
CO[C@H]1C[C@@H]2CC[C@@H](C)[C@@](O)(O2)C(=O)C(=O)N2CCCC[C@H]2C(=O)O[C@H]([C@H](C)C[C@@H]2CC[C@@H](O)[C@H](OC)C2)CC(=O)[C@H](C)/C=C(\C)[C@@H](O)[C@@H](OC)C(=O)[C@H](C)C[C@H](C)/C=C/C=C/C=C/1C,"Cytochrome P450 2C8 (CYP2C8, Homo sapiens, UniProt P10632)",,recombinant enzyme incubation,,,fraction unbound in incubation,0.43
COC(=O)N[C@@H](C)CNc1nccc(-c2cn(C(C)C)nc2-c2cc(Cl)cc(NS(C)(=O)=O)c2F)n1,CYP3A4/5,,human,"dose not given, auto-induction",,steady-state exposure decrease,~50%
CCn1c(=O)c(-c2cc(NC(=O)Nc3ccccc3)c(F)cc2Br)cc2cnc(NC)cc21,human serum albumin,,,,,plasma protein binding,99.8%
CO[C@H]1/C=C/O[C@@]2(C)Oc3c(C)c(O)c4c(O)c(c(/C=N/N5CCN(C)CC5)c(O)c4c3C2=O)NC(=O)/C(C)=C\C=C\[C@H](C)[C@H](O)[C@@H](C)[C@@H](O)[C@@H](C)[C@H](OC(C)=O)[C@@H]1C,CYP2B6,enzyme induction,,Simcyp compound file,,EC50,70 nM
CNC(C)C1CCC(N)C(OC2C(N)CC(N)C(OC3OCC(C)(O)C(NC)C3O)C2O)O1 (stereo not drawn),Pseudomonas aeruginosa,,clinical isolate RKI-No_221/16,,,MIC,4 µg/mL
Nc1cc(C(F)(F)F)c(-c2nc(N3CCOCC3)nc(N3CCOCC3)n2)cn1,"Dual specificity tyrosine-phosphorylation-regulated kinase 1B (DYRK1B, Homo sapiens, UniProt Q9Y463)",enzyme activity,,10 µM,reference: untreated,remaining activity,61%
Cc1ccc(C)c(OCCCC(C)(C)C(=O)O)c1,OATP1B3,,,,literature maximum,IC50,910000 nM
Cc1ccc(C)c(OCCCC(C)(C)C(=O)O)c1,albumin,,plasma,,,plasma protein binding,98.6%
COc1ccc2cc(OCC3(C(=O)O)CN(C(=O)c4ccc(F)cc4)C3)ccc2c1,"OATP1B1, OATP1B3 and MATE1",inhibitor,,concentration not given,,transporter inhibition,inhibited
CC1(C)S[C@@H]2[C@H](NC(=O)[C@H](N)c3ccccc3)C(=O)N2[C@H]1C(=O)O,Pseudomonas aeruginosa,,clinical isolate RKI-No_321/16,,,MIC,> 16 µg/mL
C[C@H]1O[C@@H](O[C@H]2[C@@H](O)C[C@H](O[C@H]3[C@@H](O)C[C@H](O[C@H]4CC[C@@]5(C)[C@H](CC[C@@H]6[C@@H]5C[C@@H](O)[C@]5(C)[C@@H](C7=CC(=O)OC7)CC[C@]65O)C4)O[C@@H]3C)O[C@@H]2C)C[C@H](O)[C@@H]1O,"ATP-dependent translocase ABCB1 (ABCB1, Homo sapiens, UniProt P08183)",substrate,"cells, human jejunal crypt-derived",,,efflux ratio,> 20
COc1cc(O)c(CC=C(C)C)c2c1C(=O)CC(c1ccc(O)cc1)O2 (stereo not drawn),recombinant CYP1A2 (human),"enzyme activity, inhibitor",,"10 µM, added: acetanilide",,inhibition,> 90%
CC(O)C(C)n1ncn(-c2ccc(N3CCN(c4ccc(OCC5COC(Cn6cncn6)(c6ccc(Cl)cc6Cl)O5)cc4)CC3)cc2)c1=O (stereo not drawn),CYP3A4,substrate,,,,Vmax,0.13 pmol/min/pmol
COc1cc(N2CCC(N3CCN(C)CC3)CC2)ccc1Nc1ncc(Cl)c(Nc2ccccc2P(C)(C)=O)n1,CYP3A (human),drug interaction,human,"90 mg, added: itraconazole 200 mg",reference: compound alone,AUCinf increase,101%
CO[C@H]1/C=C/O[C@@]2(C)Oc3c(C)c(O)c4c(O)c(c(/C=N/N5CCN(C)CC5)c(O)c4c3C2=O)NC(=O)/C(C)=C\C=C\[C@H](C)[C@H](O)[C@@H](C)[C@@H](O)[C@@H](C)[C@H](OC(C)=O)[C@@H]1C,P-glycoprotein (human),substrate,,,,Km,55 µM
C=CC(=O)Nc1cc(Nc2nccc(-c3cn(C)c4ccccc34)n2)c(OC)cc1N(C)CCN(C)C,CYP2A6,,,,,metabolism contribution,15.5%
C#C[C@]1(O)CC[C@H]2[C@@H]3CCc4cc(O)ccc4[C@H]3CC[C@@]21C,UGT1A1,substrate,human liver microsomes,,,Vmax,408 pmol/min/mg protein
CO[C@H]1/C=C/O[C@@]2(C)Oc3c(C)c(O)c4c(O)c(c(/C=N/N5CCN(C)CC5)c(O)c4c3C2=O)NC(=O)/C(C)=C\C=C\[C@H](C)[C@H](O)[C@@H](C)[C@@H](O)[C@@H](C)[C@H](OC(C)=O)[C@@H]1C,CYP2C19 human,"enzyme induction, inducer",,,,EC50,450 nM
C=C[C@@H]1C[C@]1(NC(=O)[C@@H]1C[C@@H]2CN1C(=O)[C@H](C(C)(C)C)NC(=O)O[C@@H]1C[C@H]1CCCCCc1nc3ccc(OC)cc3nc1O2)C(=O)NS(=O)(=O)C1CC1,human BSEP,"ATP-dependent uptake, inhibitor",,added: taurocholic acid,,IC50,150 nM
O=C(O)CN(CCN(CC(=O)O)CC(=O)O)CC(=O)O,protonation constant,,,0.15 M NaCl,,log KH2,5.99
C[C@]1(c2nc3c(C(N)=O)cccc3[nH]2)CCCN1,OCT1/2,,OCT1/2 double-knockout mice,dose not given,reference: wild type,renal clearance reduction,1.8 fold
O=C(O)CN1CCNCCN(CC(=O)O)CCN(CC(=O)O)CC1,protonation constant,,,0.15 M NaCl,,log KH2,9.83
CC(C)n1c(=O)n(C)c2cnc3cc(F)c(-c4ccc(OCCCN5CCCCC5)nc4)cc3c21,"Aldehyde oxidase (Homo sapiens, UniProt Q06278)",substrate,human liver cytosol,,,CLint,3.5 mL/min/mg protein
Cc1ccc(C)c(OCCCC(C)(C)C(=O)O[C@@H]2O[C@H](C(=O)O)[C@@H](O)[C@H](O)[C@H]2O)c1,OATP1B3 (SLCO1B3) OATP1B3,,,literature geometric mean,,IC50,74000 nM
CO[C@H]1/C=C/O[C@@]2(C)Oc3c(C)c(O)c4c(O)c(c(/C=N/N5CCN(C)CC5)c(O)c4c3C2=O)NC(=O)/C(C)=C\C=C\[C@H](C)[C@H](O)[C@@H](C)[C@@H](O)[C@@H](C)[C@H](OC(C)=O)[C@@H]1C,BSEP,inhibitor,,,,Ki,31000 nM
Cc1ccc(C)c(OCCCC(C)(C)C(=O)O[C@@H]2O[C@H](C(=O)O)[C@@H](O)[C@H](O)[C@H]2O)c1,OATP1B1,,,,,Ki,7900 to 24300 nM

# For quick reference, copied from above:
SMILES,tested on,test,system,conditions,scale,measurement,value
CCn1c(=O)c(-c2cc(NC(=O)Nc3ccccc3)c(F)cc2Br)cc2cnc(NC)cc21,human serum albumin,,,,,plasma protein binding,99.8%
O=C1CC[C@H](N2Cc3cc(N4CCN(CC5CCN(c6ccc([C@@H]7c8ccc(O)cc8CC[C@@H]7c7ccccc7)cc6)CC5)CC4)ccc3C2=O)C(=O)N1,"Broad substrate specificity ATP-binding cassette transporter ABCG2 (ABCG2, Homo sapiens, UniProt Q9UNQ0)",clinical DDI,,"concentration not given, added: rosuvastatin (victim)",,Cmax increase,11%
C=CC(=O)Nc1cc(Nc2nccc(-c3cn(C)c4ccccc34)n2)c(OCC(F)(F)F)nc1N(C)CCNC,CYP3A4,"enzyme induction, inducer",in vitro,,,EC50,330 nM
C[C@]1(c2nc3c(C(N)=O)cccc3[nH]2)CCCN1,OCT1/2,,OCT1/2 double-knockout mice,dose not given,reference: wild type,renal clearance reduction,1.8 fold
CC(O)c1cc(C(=O)N[C@@H](C)Cn2ccc(-c3ccc(C#N)c(Cl)c3)n2)[nH]n1 (stereo partly drawn),OATP1B1,,,,literature maximum,IC50,16800 nM
O=C(O)CN1CCNCCN(CC(=O)O)CCN(CC(=O)O)CC1,protonation constant,,,0.15 M NaCl,,log KH2,9.83
